{"data": "Experimental data from different studies", "note": "A part holds a random share of what one study measured."}
{"data": "Sample 1", "target": "Ras GTPase-activating protein-binding protein 1, full length (G3BP1, Homo sapiens, UniProt Q13283)", "technique": "RNA Bind-n-Seq", "molecule type": "RNA", "matrix": "in vitro", "concentration": "200 nM", "notes": "whole 134-nt RNA, ends assumed", "with": "150 mM LiCl", "baseline": "input library", "direction": "higher = stronger binding", "all molecules": "7-deaza-guanosine replaces G", "chain of UniProt Q13283 (whole entry, looked up)": "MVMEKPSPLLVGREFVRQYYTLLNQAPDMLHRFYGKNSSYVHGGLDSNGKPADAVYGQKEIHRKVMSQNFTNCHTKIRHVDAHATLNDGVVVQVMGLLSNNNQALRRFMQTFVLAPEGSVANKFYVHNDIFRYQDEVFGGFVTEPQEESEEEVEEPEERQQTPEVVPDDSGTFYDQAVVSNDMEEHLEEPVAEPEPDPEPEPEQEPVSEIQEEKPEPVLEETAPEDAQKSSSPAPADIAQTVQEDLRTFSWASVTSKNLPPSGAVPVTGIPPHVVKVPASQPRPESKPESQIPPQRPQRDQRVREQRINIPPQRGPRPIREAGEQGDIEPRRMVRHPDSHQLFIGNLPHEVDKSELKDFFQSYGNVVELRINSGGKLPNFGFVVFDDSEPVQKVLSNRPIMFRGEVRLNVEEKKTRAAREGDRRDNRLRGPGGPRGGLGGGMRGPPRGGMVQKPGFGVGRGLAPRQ"}
{"Oligonucleotide": "GGGAGUUCUACAGUCCGACGAUCCUGUGCUACACAUCGUAUGUACCGAAUCGGGGUUUUUGGGGUUUUUUUGGGGAAAAAGGGGAAAGUAUUAUGUUACGCCGUUCGGAUCUGUGGAAUUCUCGGGUGUCAAGG", "log2 enrichment": 0.685}
{"Oligonucleotide": "GGGAGUUCUACAGUCCGACGAUCACCAUGCAGGUGGGCAUCUUUGGGAAGUGGGGCAAGGGGGGGAUAGGGAGGGGGGUAACACUUUGGGAACAGGUGGUAAAAGGUCGUUUCUGGAAUUCUCGGGUGUCAAGG", "log2 enrichment": -0.152}
{"Oligonucleotide": "GGGAGUUCUACAGUCCGACGAUCAAGUCCUGUGCUACACAUCGUAUGUACCGAAUCGGAAAAAGGAAAAAGGAAAAAGGGAAAGUAUUAUGUUACGCCGUUCGGAUCUGCACUUGGAAUUCUCGGGUGUCAAGG", "log2 enrichment": -0.343}
{"Oligonucleotide": "GGGAGUUCUACAGUCCGACGAUCACCAUGCAGGUGGGCAUCUUUGGGAAGUGGGGCAAGGGGGGGAUAGGAAAGGGGGUAACACUUUGGGAACAGGUGGUCCCAGGUCGUUUCUGGAAUUCUCGGGUGUCAAGG", "log2 enrichment": 0.365}
{"data": "Sample 2", "target": "Interferon regulatory factor 5, full length, phosphomimetic (IRF5, Homo sapiens, UniProt Q13568-2, residues 1-514, S451D/S453D/S456D/S462D)", "technique": "protein-binding microarray", "molecule type": "double-stranded DNA, one strand shown", "matrix": "in vitro", "concentration": "940 nM top", "notes": "60-bp whole probe", "with": "salmon DNA 0.4 mg/ml", "baseline": "random background probes", "direction": "higher = stronger binding", "shared flanks, not repeated": "GCCTAGCAC … GTCTTGATTCGCTTGACGCTGCTG"}
{"Oligonucleotide": "GACGATCTCAGTCTTGAGACGTGCTAG", "fitted relative affinity [z-score]": 0.166}
{"Oligonucleotide": "GAGGGTTTCGACACTGGGGACGTGCTA", "fitted relative affinity [z-score]": 5.12}
{"Oligonucleotide": "TGAAGACTTTCTTTCAAATGGTGCTAG", "fitted relative affinity [z-score]": 0.362}
{"Oligonucleotide": "GACGGTTTCCTTATCCTGACGTGCTAG", "fitted relative affinity [z-score]": 1.76}
{"Oligonucleotide": "GACAATATCAGACTGGAGACGTGCTAG", "fitted relative affinity [z-score]": 0.00474}
{"Oligonucleotide": "GACGGACTAGACTATCGGGACGTGCTA", "fitted relative affinity [z-score]": -0.123}
{"Oligonucleotide": "TCACAAGTTTCACGTCTTACTGTGCTA", "fitted relative affinity [z-score]": 1.63}
{"Oligonucleotide": "GACGGACTGCTTTTACTGACGTGCTAG", "fitted relative affinity [z-score]": -0.239}
{"Oligonucleotide": "TTAGATTTCGGTTTTCGATTAGTGCTA", "fitted relative affinity [z-score]": 3.77}
{"data": "Sample 3", "target": "RNA binding protein fox-1 homolog 2, RRM domain, GST-SBP tag (RBFOX2, Homo sapiens, UniProt O43251-10, residues 100-194)", "technique": "RNA Bind-n-Seq", "molecule type": "RNA", "matrix": "in vitro", "concentration": "365 nM", "notes": "natural RNA segment, single round, ends assumed", "baseline": "no-protein control", "direction": "higher = stronger binding", "shared flanks, not repeated": "GGGAGUUCUACAGUCCGACGAUC … UGGAAUUCUCGGGUGCCAA", "Construct (chain)": "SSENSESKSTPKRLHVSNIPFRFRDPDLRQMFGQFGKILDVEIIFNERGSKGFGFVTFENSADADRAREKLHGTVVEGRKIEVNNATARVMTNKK"}
{"Oligonucleotide": "CUCGUGGGUGGUGACUUUUCCUGCAGGGCGCACGCCCUGCUGCAGCCCCCUCCCCCGCAGCCCGGAACCCACAUUGCCGGCGCAUCCUGGGUGGAGGCAGACCCCGAGCU", "RBNS enrichment (R)": 0.338}
{"Oligonucleotide": "GGUUUCAGGGCACUGAAGCCUUCCCGAAGUGCGUACACAUUCUGGGGAGUGUGCUCCAGCUGCCCCCGACUUGUUUGGGUGAUCUCUCUGGGGCGGCACGUUUUACUCUU", "RBNS enrichment (R)": 0.324}
{"Oligonucleotide": "GUCUGGAAUAAAGCCCCCUAGUUGCCUUUGGCCCCACCUUUGCAAAGUUCCAGAGGGCUGACCCUCUCUGCAAAACUCUCCCCUGUCCUCUAGACCCCACCCUGGGUGUA", "RBNS enrichment (R)": 0.368}
{"Oligonucleotide": "GCAGAAGAUCAAAAUGCUAAAACAUGAUGAUUAGUGCACACCGUGUGCCAUAGAAUGGCACAUGUCAUUGCCCACUUCUGUGUAGACAUGGUUCUGGUUUAACUAAUAUU", "RBNS enrichment (R)": 0.233}
{"Oligonucleotide": "GAAGGCACAGCCAGCGUUGUGGCCUGAGGGAGGCCCUGCUGGGACCCUGAUCUGGGCCUUCCUGUCCCAGGGCCUAUGGGCAACUGCGUUGAAAGGACGUUCGCCAAGGG", "RBNS enrichment (R)": 0.497}
{"Oligonucleotide": "AUGCCUCAGGAUCUUGUUUCUGACACCAGAAUGCAACAGAUGAGAAGCUUUUUGGUGUGAACUGGAAAAAAAAAAAAGGUGCAUUUUUCUCCGUGAAGGUCUUAGUGUAU", "RBNS enrichment (R)": 0.555}
{"Oligonucleotide": "AAACCAUUGCAUAAAUGCUAUUGUAAAAAAAAUUAAACAAAUGUUAACAACUUUAACAAUUCACUAAGUAAAUGGUUAUGUAUUAUAAAUAUGACCAUCUGGGUUAAGAA", "RBNS enrichment (R)": 0.481}
{"Oligonucleotide": "UGGGAGACAAAGGAGGAAUUUACUUUCUUCACCAAGUGCAAUAGAUUACUGAUGUGAUAUUCUGUUGCUUUACAGUUACAGUUGAUGUUUGGGGAUCGAUGUGCUCAGCC", "RBNS enrichment (R)": 0.338}
{"Oligonucleotide": "UCACUUUUGUUUUAAAGUGGUCCCUCCAAGAAUAAUGUGGCAUACACAGUGGGUUUGGUUGUAAGGCAGAUGUAAUAGAUGACUUCAAAAGCCUGCUCCUUACUGCACUC", "RBNS enrichment (R)": 0.331}
{"Oligonucleotide": "CGUUGUGUAGUGAGCACCUUGUUCCCACUUUUGUAGUCCUUUCCGUUCUGACCCGUCAGCAGCCUGCUUCUGACCCAAGAUGGCCUCGUGACUAGACCUGUUUUUAAGGA", "RBNS enrichment (R)": 0.326}
{"Oligonucleotide": "GAUUCUUAAAAAGCAGUGGUUAAUUUGCUGGCUUUUCAAACCCUGCCCGCCCUGGUUUGCCUGCGGUUUAAUAUGCAAUAUUCAGCAGACAGCUGCUGGCGCUACAAUUA", "RBNS enrichment (R)": 0.991}
{"data": "Mixed results"}
{"Molecule": "PhoQ, residues 284 288 289 292 302 303 SLANKL", "target": "PhoP, residues 12 14 15 18 19 VHTVL (Escherichia coli, UniProt P23836)", "assay": "Sort-seq, measured: YFP reporter", "system": "E. coli", "setting": "PhoQ-PhoP variant library, with: 10 µM Mg2+", "scale": "baseline: high Mg2+ state, higher = stronger signaling", "endpoint": "fold induction", "result": 10.7}
{"note": "Excerpt of the above (sample 3):"}
{"Oligonucleotide": "CUCGUGGGUGGUGACUUUUCCUGCAGGGCGCACGCCCUGCUGCAGCCCCCUCCCCCGCAGCCCGGAACCCACAUUGCCGGCGCAUCCUGGGUGGAGGCAGACCCCGAGCU", "RBNS enrichment (R)": 0.338}
